Assay results collected from several papers.
Parts stem from different laboratories: compare values within a part only. Changes are numbered by the printed parent chain.

Study 1 — technique: protein-binding microarray; molecule type: double-stranded DNA, one strand shown; medium: in vitro; tested at: not given; direction: higher = stronger binding; quantity: E-score
Target: Protein C-ets-1 (ETS1, Homo sapiens, UniProt P14921, residues 1-441, full length assumed)
Notes: k-mer, scored over probes, only values ≥0.25
Construct (chain): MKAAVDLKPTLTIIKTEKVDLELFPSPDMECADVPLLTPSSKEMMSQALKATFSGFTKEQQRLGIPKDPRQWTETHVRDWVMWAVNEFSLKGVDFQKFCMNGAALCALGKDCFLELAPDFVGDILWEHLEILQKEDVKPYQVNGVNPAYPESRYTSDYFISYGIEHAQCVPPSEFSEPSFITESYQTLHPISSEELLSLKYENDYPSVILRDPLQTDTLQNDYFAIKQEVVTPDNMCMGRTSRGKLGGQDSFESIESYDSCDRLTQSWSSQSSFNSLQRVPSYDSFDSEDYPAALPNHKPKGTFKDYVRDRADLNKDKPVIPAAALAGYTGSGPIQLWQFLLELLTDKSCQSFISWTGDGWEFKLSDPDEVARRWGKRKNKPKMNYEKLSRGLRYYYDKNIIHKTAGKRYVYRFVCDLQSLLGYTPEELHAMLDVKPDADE
ATCCCGGA: 0.419
CAGCCGGA: 0.459
GGAAAGCA: 0.253
CGACGGAA: 0.399
ATAGGAAG: 0.368
CTTCTTCC: 0.333
CGGGAACC: 0.256
CCTCGAGG: 0.312

Study 2 — target: CCNE2, cyclin fold, Cln2 fusion (human); technique: yeast growth competition, sequencing; medium: yeast; notes: strong parent motif; relative to: not given; direction: higher = stronger binding; quantity: normalised enrichment score; parent: viral docking peptide; KKVKRRLFETREL
KKVKRRLFETRAL [E12A]: 3.17
KKVKKRLLETREL [R5K F8L]: 0.645
AKVKRRLFETREL [K1A]: 4.95
KKVKRRLFEAREL [T10A]: 3.92
KKVKRRAFETREL [L7A]: 1.1
KKVKRRLAETREL [F8A]: 0.491
KKVKKRLFETREL [R5K]: 1.42
KKAKRRLFETREL [V3A]: 3.08

Study 3 — target: inorganic phosphate, free oxyanion; technique: microfluidic competitive inhibition; medium: in vitro, cell-free expressed; tested at: not given; direction: lower = stronger binding; quantity: phosphate dissociation constant
Notes: derived from inhibition constants, unchanged parent 615000 nM
Parent: PafA, mature enzyme, eGFP fusion (Elizabethkingia meningoseptica, UniProt Q9KJX5); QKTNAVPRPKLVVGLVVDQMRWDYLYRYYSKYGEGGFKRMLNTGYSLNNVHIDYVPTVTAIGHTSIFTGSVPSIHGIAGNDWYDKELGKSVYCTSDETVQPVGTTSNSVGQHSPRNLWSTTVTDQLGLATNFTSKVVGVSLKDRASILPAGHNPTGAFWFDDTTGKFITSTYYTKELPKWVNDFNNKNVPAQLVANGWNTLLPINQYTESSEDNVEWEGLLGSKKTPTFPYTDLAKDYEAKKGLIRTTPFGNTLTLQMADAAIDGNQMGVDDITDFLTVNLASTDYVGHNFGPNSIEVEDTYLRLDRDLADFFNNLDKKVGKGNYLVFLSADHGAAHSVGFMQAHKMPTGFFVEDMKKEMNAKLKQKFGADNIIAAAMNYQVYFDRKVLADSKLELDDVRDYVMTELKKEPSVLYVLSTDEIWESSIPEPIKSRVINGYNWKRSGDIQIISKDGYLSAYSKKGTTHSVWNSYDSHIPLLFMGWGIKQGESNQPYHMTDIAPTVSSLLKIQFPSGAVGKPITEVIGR
P9V: 438 µM
D264G: 581 µM
G151A: 486 µM
G482A: 551 µM
V523G: 585 µM
L201G: 544 µM
E299V: 518 µM
K135G: 535 µM
Y29G: 507 µM
G323A: 614 µM
A375G: 578 µM
M268G: 606 µM
H495V: 557 µM
K432G: 469 µM
I499V: 586 µM
S46V: 588 µM
G438V: 203 µM
D143G: 2320 µM
G321V: 610 µM
P477G: 566 µM
A390V: 654 µM
F384G: 527 µM
N470V: 487 µM
L11V: 619 µM
Y383V: 664 µM

Study 4 — observed: binding; technique: phage display NGS; molecule type: peptide; relative to: input library; quantity: minimum log2 enrichment ratio
Target: UDP-N-acetylglucosamine--peptide N-acetylglucosaminyltransferase 110 kDa subunit (OGT, Homo sapiens, UniProt O15294)
Sequence of UniProt O15294 (whole entry, looked up): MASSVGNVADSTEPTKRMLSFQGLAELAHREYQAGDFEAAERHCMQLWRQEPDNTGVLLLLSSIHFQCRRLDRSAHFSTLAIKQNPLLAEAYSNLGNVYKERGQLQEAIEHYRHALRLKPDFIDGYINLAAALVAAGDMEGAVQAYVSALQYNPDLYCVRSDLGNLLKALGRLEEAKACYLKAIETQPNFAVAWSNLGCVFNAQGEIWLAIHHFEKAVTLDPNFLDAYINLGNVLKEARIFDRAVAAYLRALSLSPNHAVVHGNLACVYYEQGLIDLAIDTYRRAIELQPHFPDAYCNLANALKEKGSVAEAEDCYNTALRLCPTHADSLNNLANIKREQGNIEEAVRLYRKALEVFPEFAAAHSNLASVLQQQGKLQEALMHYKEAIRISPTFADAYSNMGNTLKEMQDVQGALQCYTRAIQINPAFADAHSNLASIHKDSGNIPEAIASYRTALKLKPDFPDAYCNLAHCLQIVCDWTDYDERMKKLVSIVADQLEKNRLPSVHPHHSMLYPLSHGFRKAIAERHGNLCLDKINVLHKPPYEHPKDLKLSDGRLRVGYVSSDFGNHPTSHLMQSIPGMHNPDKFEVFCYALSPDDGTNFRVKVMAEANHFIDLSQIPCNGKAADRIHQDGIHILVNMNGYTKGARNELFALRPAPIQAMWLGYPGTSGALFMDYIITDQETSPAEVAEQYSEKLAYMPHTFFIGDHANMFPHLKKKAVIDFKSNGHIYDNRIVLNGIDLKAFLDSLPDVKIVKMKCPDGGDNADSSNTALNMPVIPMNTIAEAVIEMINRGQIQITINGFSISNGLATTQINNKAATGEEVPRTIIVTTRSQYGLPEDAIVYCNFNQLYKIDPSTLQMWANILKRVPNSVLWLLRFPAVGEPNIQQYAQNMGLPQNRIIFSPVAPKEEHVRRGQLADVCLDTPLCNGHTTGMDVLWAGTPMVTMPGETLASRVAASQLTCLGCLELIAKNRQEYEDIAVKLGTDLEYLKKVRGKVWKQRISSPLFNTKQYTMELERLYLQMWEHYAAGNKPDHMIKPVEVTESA
HIVHYNKYFASGTHT: 1.25
QRYGHTHMDHFSTSI: 1.7
HRVQFPWPHDAGHRH: 2.78
RHPHEHDLHDVITHA: 3.18
HIHWTGESPSPHWVH: 1.32
HRHDYDYQHHLPRYF: 2.06
HQYHHFRDNYNQIFM: 3.42
HQQLVHGAWHHPIT: 2.5
SPFMPMYPIVPNRSD: 5.07
HDHQHESWFVHIPH: 3.4
GISDGMYMPWYKIRT: 1.18
THTHFYWQPHHRGV: 2.66
NFLPYYLIPVRNGGI: 3.41
HLHHYDDYYTHDPVI: 2.77
YDKVMPEYQIKYTTS: 3.85
QHYQHHSHDKSHPYE: 2.05
NPPHSVHHTQIHRHN: 2.8
VFTPSYQIYIKPRQF: 2.71
VTSENHPHVYMYYHV: 1.76
HLQTVHSHSYYLRS: 1.21
SFPRHQHTYHTQPSR: 2.39
QPYSNYHHHAHIRYD: 2.19
QFWPMVTHNAHITGG: 1.6
SYYPYYQISLPEQVR: 3.38
SDVTAMPKYQIQYQY: 4.32

Repeated from above (study 2):
AKVKRRLFETREL [K1A]: 4.95
KKAKRRLFETREL [V3A]: 3.08
KKVKRRLFEAREL [T10A]: 3.92
KKVKRRAFETREL [L7A]: 1.1
KKVKKRLFETREL [R5K]: 1.42
KKVKRRLAETREL [F8A]: 0.491
